Published values gathered from unrelated publications.
± gives the spread as reported.
Cell line: BV-2

CC[C@@]12CC(O)c3[nH]c4ccccc4c3CCN(C[C@H]3O[C@H]31)C2 (stereo partly shown) has an inhibition of 41.1 ± 0.8% (NO production; 12 µM, 1 h, 24 h stimulation, together with: LPS 800 ng/mL; reference: LPS control).
For COc1cc(/C=C/C(=O)O)ccc1O, the inhibition was 51.9% (NO release, inhibitor, Griess; 5 µM, LPS-stimulated).
COc1cc(O)cc2c1-c1ccc(O)c(OC)c1CC2: cytokine release “decreased” (ELISA, refers to: IL-6; concentration not given, pretreatment, together with: LPS).
CCCCCCCCCCCCCCCC(=O)OCC(CSC[C@H](N)C(=O)N[C@@H](CO)C(=O)N[C@@H](CCCCN)C(=O)N[C@@H](CCCCN)C(=O)N[C@@H](CCCCN)C(=O)N[C@@H](CCCCN)C(=O)NCCCCCC(=O)N[C@@H](CCCCN)C(=O)N[C@@H](CC(C)C)C(=O)N[C@H](C(=O)N[C@@H](Cc1ccccc1)C(=O)N[C@@H](Cc1ccccc1)C(=O)N[C@@H](Cc1ccc2ccccc2c1)C(=O)O)C(C)C)OC(=O)CCCCCCCCCCCCCCC (stereo partly shown) — result for mRNA level: “increased” (RT-qPCR, refers to: Msr1; 1.0 µM, 12 h).
COc1cc(O)c(-c2c(O)cc(OC)c3c2ccc2cc(O)ccc23)c2ccc3ccccc3c12 — result for cytokine release: “decreased” (ELISA, refers to: MCP-1; concentration not given, pretreatment, together with: LPS).
CC[C@@]12CCc3c(c4ccccc4n3C)CCN(C[C@H](O)[C@H]1O)C2 has an inhibition of 44.4 ± 4.7% (NO production; 3 µM, 1 h, 24 h stimulation, together with: LPS 800 ng/mL; reference: LPS control).
With O=[N][Fe]1([N]=O)[S](CCO)[Fe]([N]=O)([N]=O)[S]1CCO the IC50 was 11.7 µM (cell growth or viability, CCK-8).
With CC[C@@]12CCc3[nH]c4ccccc4c3CCN(C[C@H]3O[C@H]31)C2 the inhibition was 65.3 ± 2.1% (NO production; 12 µM, 1 h, 24 h stimulation, together with: LPS 800 ng/mL; reference: LPS control).
COc1cc(Cn2ccc3cc(C(=O)NCC45CC6CC(CC(C6)C4)C5)ccc32)ccc1C(=O)NO — result for IBA1 level: “decreased” (microglial activation; 1000 nM, 3 h, together with: LPS 1 µg/mL).
CC[C@H]1CC[C@H]2[C@@H]3C[C@@H](O)[C@@]4(O)C[C@H](N)CC[C@]4(C)[C@H]3CC[C@]12C has an IC50 of 1 µM (nuclear intensity, high-content imaging).

Some of these lines once more:
CCCCCCCCCCCCCCCC(=O)OCC(CSC[C@H](N)C(=O)N[C@@H](CO)C(=O)N[C@@H](CCCCN)C(=O)N[C@@H](CCCCN)C(=O)N[C@@H](CCCCN)C(=O)N[C@@H](CCCCN)C(=O)NCCCCCC(=O)N[C@@H](CCCCN)C(=O)N[C@@H](CC(C)C)C(=O)N[C@H](C(=O)N[C@@H](Cc1ccccc1)C(=O)N[C@@H](Cc1ccccc1)C(=O)N[C@@H](Cc1ccc2ccccc2c1)C(=O)O)C(C)C)OC(=O)CCCCCCCCCCCCCCC (stereo partly shown) — result for mRNA level: “increased” (RT-qPCR, refers to: Msr1; 1.0 µM, 12 h).
